Published values pooled from the literature.
Parts stem from different laboratories: compare values within a part only. Values joined by “and” are separate records of one study, mostly repeats; a detail may differ.

Study 1 — cell line: HCC1569; effect on: CDK1 Thr14 phosphorylation; technique: in-cell western; tested at: 12.35 nM; direction: lower = stronger inhibition
| SMILES | phospho-CDK1 (Thr14) level |
| --- | --- |
| Cc1ccc(O)c(C)c1-c1cnc2[nH]c(-c3cnc(N4CCC(CN5CCN(c6ccc(NC7CCC(=O)NC7=O)cc6F)CC5)CC4)nc3)cc2c1C#N (stereo not drawn) | 34.1 a.u. and 32.9 a.u. |
| Cc1ccc(O)c(C)c1-c1cnc2[nH]c(-c3cnc(N4CCC(CN5CCN(c6cc7c(cc6F)c(N6CCC(=O)NC6=O)nn7C)CC5)CC4)nc3)cc2c1C#N | 30.8 a.u. and 44.2 a.u. |
| Cc1ccc(O)c(C)c1-c1cnc2[nH]c(-c3cnc(N4CCC(CN5CCC(c6ccc(NC7CCC(=O)NC7=O)cc6F)CC5)CC4)nc3)cc2c1C#N (stereo not drawn) | 35.7 a.u. and 7.49 a.u. |
| Cc1ccc(O)c(C)c1-c1cnc2[nH]c(-c3cnc(N4CCC(CN5CCN(c6cc7c(cc6F)n(C6CCC(=O)NC6=O)c(=O)n7C)CC5)CC4)nc3)cc2c1C#N (stereo not drawn) | 2.2 a.u. and -5.3 a.u. |
| Cc1ccc(O)c(C)c1-c1cnc2[nH]c(-c3cnc(N4CC5(CC(CN6CCN(c7ccc(NC8CCC(=O)NC8=O)cc7F)CC6)C5)C4)nc3)cc2c1C#N (stereo not drawn) | 42.1 a.u. and 50.2 a.u. |

Study 2 — technique: DNA microarray; reference: untreated cells
SMILES: COCC1CC2C(CCC3(C)C(O)CCC23)c2ccc(O)cc21 (stereo not drawn)
| cell line | item | tested at | notes | log2 fold change |
| --- | --- | --- | --- | --- |
| A549 | CDCA8 | 50 µM |  | -0.384 |
| PANC-1 | TMEM108 | concentration not given | higher dose arm | 0 |
| A549 | MCM6 | 50 µM |  | -0.21 |
| A549 | CALR3 | 50 µM |  | 0.797 |
| PANC-1 | ACTA2 | concentration not given | lower dose arm | -0.366 |
| A549 | CDC25B | 100 µM |  | 0.392 |
| A549 | GDF15 | 50 µM |  | 1.23 |
| PANC-1 | GDF15 | concentration not given | lower dose arm | 1.58 |
| PANC-1 | IL28A | concentration not given |  | 1.61 |
| SK-OV-3 | RFC3 | concentration not given | lower dose arm | 0.0929 |
| PANC-1 | TMEM108 | concentration not given |  | 1.86 |
| A549 | DNER | 50 µM |  | 4.53 |
| A549 | IL20RA | concentration not given |  | 3.61 |
| A549 | MCM6 | 100 µM |  | -0.569 |
| PANC-1 | IL23R | concentration not given | lower dose arm | 3.09 |

Study 3 — cell line: AsPC-1; technique: in-cell ELISA
SMILES: Cc1ncsc1-c1ccc(C2(NC(=O)C3CC(O)CN3C(=O)C(NC(=O)c3ccc(COc4c(-c5c(C)c(F)cc6[nH]ncc56)c(C5CC5)cc5c(N6CC7CC6CN7)nc(OC6CCOCC6)nc45)cc3)C(C)C)CC2)cc1 (stereo not drawn)
| tested at | notes | phospho-ERK1/2 level |
| --- | --- | --- |
| 10 µM | individual replicates | 5.94% and 7.82% and 11.9% and 13.3% and 12.3% and 9.38% |
| 30 nM | individual replicates | 89.1% and 94.8% and 102% and 86.1% and 89% |
| 100 nM | individual replicates | 69.8% and 70.3% and 55.5% and 67.5% and 56.9% and 71.9% |
| 10 nM | per-experiment values | 88.4% and 102% and 97.4% |
| 3 nM | individual replicates | 98% and 99.8% and 95.9% and 98.3% and 87.4% and 86.6% |
| 1 µM | individual replicates | 9.4% and 8.04% and 12.1% and 14.5% and 15% and 7.55% |
| 300 pM | individual replicates | 102% and 92.3% and 101% and 106% and 105% and 96.3% |
| 3 µM | per-experiment values | 9.88% and 9.1% and 6.39% |

Study 4 — cell line: U-87 MG; tested at: concentration not given; reference: DMSO
SMILES: CCN1/C(=C/C=C2\CCCC(/C=C/C3=[N+](CC)c4ccccc4C3(C)C)=C2NCCCCCCCCN2CCC(Nc3nc4ccccc4n3Cc3ccc(F)cc3)CC2)C(C)(C)c2ccccc21
| item | log2 fold change |
| --- | --- |
| RAB26 mRNA | -2.73 |
| NCAPG mRNA | -1.8 |
| RNF19B mRNA | 1.11 |
| KIF11 mRNA | -2.08 |
| UBE2C mRNA | -2.02 |
| BARD1 mRNA | -1.39 |
| TRIOBP mRNA | -0.913 |
| GPRC5A mRNA | 2.84 |
| ANKRD44 mRNA | -1.18 |
| BCL2A1 mRNA | 2.89 |
| ALAS1 mRNA | 1.09 |
| FGF1 mRNA | -2.97 |
| NDC1 mRNA | -1.11 |
| ZMYM3 mRNA | -1.26 |
| SLC44A5 mRNA | 2.86 |
| GTSE1 mRNA | -2.41 |

Further values, each from its own experiment
| Compound | technique | species | sample | dose | measurement | value |
| --- | --- | --- | --- | --- | --- | --- |
| Cc1nc(C)c(C=[N+]([O-])C(C)(C)C)nc1C | HPLC-ECD | MPTP mouse model | striatum | 90 mg/kg | striatal dopamine content | 5.87 ng/mg tissue and 5.03 ng/mg tissue and 4.8 ng/mg tissue and 5.6 ng/mg tissue and 7.12 ng/mg tissue and 4.82 ng/mg tissue and 5.64 ng/mg tissue |

Some of these lines once more (study 2):
| cell line | item | tested at | notes | log2 fold change |
| --- | --- | --- | --- | --- |
| A549 | MCM6 | 100 µM |  | -0.569 |
| PANC-1 | GDF15 | concentration not given | lower dose arm | 1.58 |
| SK-OV-3 | RFC3 | concentration not given | lower dose arm | 0.0929 |
| PANC-1 | ACTA2 | concentration not given | lower dose arm | -0.366 |
| A549 | GDF15 | 50 µM |  | 1.23 |
